Measured values collected from several papers.
Protocols differ between the studies behind these lines. “And” joins repeats or separate records; there may be more than shown. Numbers after ± are the reported error. ≈ marks a conversion by molar mass, not a printed value.

Structure (SMILES) | organism | test | test system | setting | scale | measurement | value
Cc1cc(C(=O)NC(C)(C)COc2cccc3c2C(N)=NS(=O)(=O)N3)cc(C)n1 | Salmonella typhimurium | Ames test, initial | TA100 | 5000 µg/plate | reference: solvent control | revertant ratio | 1.2
CC(C)C[C@H](NC(=O)[C@H](Cc1c[nH]cn1)NC(=O)[C@H](Cc1c[nH]cn1)NC(=O)[C@H](Cc1ccc(O)cc1)NC(=O)[C@@H](N)CS)C(=O)N[C@H](C(=O)N[C@@H](CC(C)C)C(=O)N[C@H](C(=O)N[C@H](C(=O)NCC(=O)NCC(=O)N[C@@H](CO)C(=O)O)C(C)C)[C@@H](C)O)C(C)C | Epstein-Barr virus | – | B-NDG humanized mouse, EBV-infected | 20 mg/kg, day 0 | – | body weight | 19.9 g and 19.5 g and 18.9 g
CC1(F)CN(C(=O)Cn2c(=O)c(C(=O)NCc3ccc(Cl)cc3)cc3nc(N4CCNC4=O)cnc32)C1 | Epstein-Barr virus | qPCR | – | single first test | reference: CC50 over EC50 | selectivity index | 65.9
O=c1c(O)c(-c2ccc(O)cc2)oc2cc(O[C@@H]3O[C@H](CO)[C@@H](O)[C@H](O)[C@H]3O)cc(O)c12 | Artemia salina | – | – | 24 h, nauplii | – | LC50 | 999 µg/mL (≈ 2230 µM)
O=[N+]([O-])c1ccc(N2CCN(CCC(O)c3ccc(F)cc3)CC2)c(C(F)(F)F)c1 (centres unmarked) | Salmonella typhimurium | SOS/umu test | TA1535/pSK1002 | 0.031 mg/mL, 4 h, with S9, lower range | – | survival | 97.8%
COCCN(CCOC)N=O | Escherichia coli | mutagenicity, Ames plate incorporation | WP2 uvrA pKM101 | 5000 µg/plate, 3 d, without S9, methanol | – | revertant colonies per plate | 144 ± 19
Oc1cc(O)c2c(c1)O[C@H](c1cc(O)c(O)c(O)c1)[C@@H](O)C2 | Artemia salina | – | seawater | 24 h, nauplii | – | LC50 | 594 µg/mL (≈ 1940 µM)
COC1=CC(=O)c2ccccc2C1=O | Artemia salina | – | nauplii, synthetic seawater | 50 µg/mL, 24 h, 5% DMSO | – | mortality | 63%
CC(=O)N1CCC(C(=O)N2CCN3C(=O)c4cc(-c5ccccc5)ccc4NC(=O)C3C2)CC1 (centres unmarked) | Salmonella typhimurium | – | TA98 | 1581 µg/plate | reference: vehicle | fold increase in revertants | 1.4
O=NN1CCN(C2CCCC2)CC1 | Escherichia coli | mutagenicity, Ames plate incorporation | WP2 uvrA pKM101 | 150 µg/plate, 3 d, without S9, methanol | – | revertant colonies per plate | 129 ± 13
O=c1oc2c(O)c(O)cc3c(=O)oc4c(O)c(O)cc1c4c23 | Artemia salina | – | seawater | 24 h, nauplii | – | LC50 | 159 µg/mL (≈ 527 µM)
O=[N+]([O-])c1ccc(NC2CCNCC2)c(C(F)(F)F)c1 | Salmonella typhimurium | genotoxicity, SOS/umu test | TA1535/pSK1002 | 1 mg/mL, 4 h, without S9, full range | – | induction factor | 2.3
[Cl-].[Cl-].[Pt+2].[Ru+2].c1ccc(-c2nc3ccccc3nc2-c2ccccn2)nc1.c1cnc2c(c1)ccc1cccnc12.c1cnc2c(c1)ccc1cccnc12 | Danio rerio | – | embryos | 90 µM, 72 h | – | survival rate | 50 ± 2%
COc1cnc(OC)n2nc(NS(=O)(=O)c3c(OCC(F)F)cccc3C(F)(F)F)nc12 | Triticum aestivum | inhibited, hydroponic germination | seedlings | 50 µg/mL, 4 days | – | bud growth | inhibited
COc1cccc(-c2n[nH]c(SCc3ccccn3)n2)c1OC | Salmonella typhimurium | Ames test, plate incorporation | TA1537 | 0.25 mg/plate, without S9 | – | revertant colonies per plate | 11
CN(N=O)c1ccc(F)cc1 | Escherichia coli | mutagenicity, Ames plate incorporation | WP2 uvrA pKM101 | 1500 µg/plate, 3 d, without S9, methanol | – | revertant colonies per plate | 84.3 ± 6
O=C(O)C(F)(F)C(F)(F)C(F)(F)C(F)(F)C(F)(F)C(F)(F)C(F)(F)F | Caenorhabditis elegans | LC-MS/MS | N2 L4 larvae, exposure medium supernatant | 500 µM, 48 h | – | concentration | 302 µM
O=[N+]([O-])c1ccc(N2CCC(NCCC(O)c3ccc(F)c4ccccc34)CC2)c(C(F)(F)F)c1 (centres unmarked) | Salmonella typhimurium | SOS/umu test | TA1535/pSK1002, TGA medium | 1.53e-05 mg/mL, 4 h, with: 10% rat liver S9 | – | survival | 95%
[Cl-].[Cl-].[Pt+2].[Ru+2].c1ccc(-c2nc3cc4ccccc4cc3nc2-c2ccccn2)nc1.c1cnc2c(c1)ccc1cccnc12.c1cnc2c(c1)ccc1cccnc12 | Danio rerio | – | embryos | 45 µM, 96 h | – | survival rate | 76.7 ± 3.5%
O=C(O)C(F)(OC(F)(F)C(F)(F)C(F)(F)F)C(F)(F)F (centres unmarked) | Caenorhabditis elegans | LC-MS/MS | N2 L4 larvae, worm pellet | 500 µM, 48 h | – | internal concentration | 24.7 µM
[Cl-].[Cl-].[Pt+2].[Ru+2].c1ccc(-c2nccnc2-c2ccccn2)nc1.c1cnc2c(c1)ccc1cccnc12.c1cnc2c(c1)ccc1cccnc12 | Danio rerio | – | embryos | 75 µM, 48 h | – | survival rate | 50 ± 2.4%
CC(C)N(C)N=O | Escherichia coli | mutagenicity, Ames plate incorporation | WP2 uvrA pKM101 | 50 µg/plate, 3 d, without S9, methanol | – | revertant colonies per plate | 136 ± 15
OC(CCN1CC=C(c2ccc(F)cc2)CC1)c1ccc(F)c2ccccc12 (centres unmarked) | Salmonella typhimurium | SOS response, SOS/umu test | TA1535/pSK1002, TGA medium | 0.000244 mg/mL, 4 h, without S9 | reference: untreated | induction factor | 0.9
O=C1OC[C@H]2OC(O)[C@H](O)[C@@H](O)[C@@H]2OC(=O)c2cc(O)c(O)c(O)c2-c2c(O)c(O)c3oc(=O)c4c(c(O)c(O)c5oc(=O)c2c3c54)-c2c1cc(O)c(O)c2O (mixture of isomers) | Artemia salina | – | seawater | 24 h, nauplii | – | LC50 | 941 µg/mL
CN(CC(C)(C)C)N=O | Escherichia coli | plate incorporation | WP2uvrA pKM101, methanol | 5000 µg/plate, without S9 | – | revertant colonies per plate | 163 and 136
Cc1c(Cl)c(=O)oc2cc(OCCCC[Se]C#N)ccc12 | Caenorhabditis elegans | – | N2 Bristol, NGM with E. coli OP50 | 1 µM, 3 days | – | developmental defects | 0%

Excerpt of the above:
Structure (SMILES) | organism | test | test system | setting | scale | measurement | value
COCCN(CCOC)N=O | Escherichia coli | mutagenicity, Ames plate incorporation | WP2 uvrA pKM101 | 5000 µg/plate, 3 d, without S9, methanol | – | revertant colonies per plate | 144 ± 19
Oc1cc(O)c2c(c1)O[C@H](c1cc(O)c(O)c(O)c1)[C@@H](O)C2 | Artemia salina | – | seawater | 24 h, nauplii | – | LC50 | 594 µg/mL (≈ 1940 µM)
